{"data": "Measured values collected from several papers", "target": "Transient receptor potential cation channel subfamily M member 6 (TRPM6, Homo sapiens, UniProt Q9BX84)"}
{"Compound": "Cc1ccc(-c2c(/C=C(\\C#N)C(=O)NC(C)C)n(CCCO)c3ncnc(N)c23)cc1", "effect on": "cell-free assay", "method": "competition with immobilised ligand", "tested at": "1 µM", "remaining binding [%]": 78}
{"Compound": "C=CC(=O)N1CCc2ccc(-n3c(=O)ccc4cnc5ccc(-c6cnn(C)c6)cc5c43)cc21", "method": "KINOMEscan", "tested at": "1 µM", "baseline": "DMSO control", "remaining binding [%]": 87}
{"Compound": "Cc1cnc2nc1Nc1cccc(c1)COC/C=C/COCc1cc(ccc1OCCN1CCOCC1)N2", "effect on": "binding", "method": "competition with immobilised ligand", "tested at": "0.1 µM", "remaining binding [%]": 76}
{"Compound": "CNC(=O)C1CCN(c2cc(C)c(F)cc2NC(=O)c2ccc(-c3cc(O)ccc3C)c(C)c2)CC1", "effect on": "binding", "method": "competition with immobilised ligand", "tested at": "1 µM", "remaining binding [%]": 91}
{"Compound": "COc1cc(Nc2nc(C)cc(-c3cnn4nc(OC)ccc34)n2)cc(C(F)(F)F)c1", "effect on": "binding", "method": "competition with immobilised ligand", "tested at": "1 µM", "remaining binding [%]": 96}
{"Compound": "COc1c(Cl)cccc1Nc1c(-c2ccncc2C#C[C@@]2(C)CCCN2C(=O)/C=C/CN(C)C)[nH]c2c1C(=O)NCC2", "effect on": "cell-free assay", "method": "competition with immobilised ligand", "tested at": "3 µM", "remaining binding [%]": 92}
{"Compound": "CCN1CCN(Cc2ccc(C(=O)Nc3ccc(C)c(NCc4cnc5[nH]ccc5c4OC)c3)cc2C(F)(F)F)CC1", "effect on": "binding", "method": "competition with immobilised ligand", "tested at": "1 µM", "remaining binding [%]": 16}
{"Compound": "COc1cc(Nc2nccc(-c3cnn4nc(OC)ccc34)n2)cc(C(F)(F)F)c1", "effect on": "binding", "method": "competition with immobilised ligand", "tested at": "1 µM", "remaining binding [%]": 100}
{"Compound": "Nc1ncc2c(n1)-c1c([nH]c3ccc(C4=CCOCC4)cc13)CCC2", "effect on": "binding", "method": "competition with immobilised ligand", "tested at": "1 µM", "remaining binding [%]": 100}
{"Compound": "CNC1C[S+]2CC[S+]3CC[S+](C1)[Ru-4]321([N]=C=S)[n]2c3ccc(OC)cc3c3c4c(c5cc(F)c[n+]1c5c32)C(=O)NC4=O (stereo not shown)", "method": "KinomeScan", "tested at": "0.1 µM", "baseline": "untreated", "remaining binding [%]": 100}
{"Compound": "C=CC(=O)N1CCCC(n2c(=O)c3ncccc3n(Cc3ccc(Oc4ccccc4)cc3)c2=O)C1 (stereo not shown)", "effect on": "cell-free assay", "method": "competition with immobilised ligand", "tested at": "1 µM", "remaining binding [%]": 85}
{"Compound": "CC(C)=CC1OC(C)(C)C2C=C3C(=O)C(Cl)=CC(O)C3C3C(O)C4OC4C(=O)C132 (stereo not shown)", "effect on": "cell-free assay", "method": "competition with immobilised ligand", "tested at": "10 µM", "remaining binding [%]": 81}
{"Compound": "CCN1CCN(Cc2ccc(NC(=O)c3ccc(C)c(NC(=O)c4cncc(-c5cnn(C)c5)c4)c3)cc2C(F)(F)F)CC1", "effect on": "binding", "method": "competition with immobilised ligand", "tested at": "1 µM", "remaining binding [%]": 100}
{"note": "Excerpt of the above:"}
{"Compound": "COc1cc(Nc2nc(C)cc(-c3cnn4nc(OC)ccc34)n2)cc(C(F)(F)F)c1", "effect on": "binding", "method": "competition with immobilised ligand", "tested at": "1 µM", "remaining binding [%]": 96}
